Experimental data pooled from the literature.
A part holds a random share of what one study measured. Substitutions count along the parent as printed.

Series 1
Target: Histone acetyltransferase KAT6A, both winged helices, GST fusion (KAT6A, Homo sapiens, UniProt Q92794, residues 1-181)
Technique: protein binding microarray
Form: double-stranded DNA, one strand shown
Medium: in vitro
Concentration: not given
Setting: 8-mer, flanks averaged, mean of 2 arrays, mostly near background
Baseline: not given
Direction: higher = stronger binding
Measurement: E-score
Residues (chain): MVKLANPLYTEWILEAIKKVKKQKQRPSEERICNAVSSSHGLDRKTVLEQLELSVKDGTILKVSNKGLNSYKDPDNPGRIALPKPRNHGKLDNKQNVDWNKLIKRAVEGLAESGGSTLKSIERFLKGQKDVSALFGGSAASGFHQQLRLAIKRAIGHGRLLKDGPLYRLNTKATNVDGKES
GAACTAAC: -0.0763
TATCTTCA: -0.0303
TAGTTTAA: -0.0385
ATGTTAGA: -0.217
AAACTGGA: -0.134
GACAGATA: -0.019
CACATTAC: 0.0851
CTTAACAC: 0.00581
AAGCGTAG: 0.0471
GCTCAGCC: 0.00717
AGGCTGGG: -0.297
CGTTTGGA: -0.0926
GATCGGCC: 0.238
AGGAGTGA: -0.19
ACGCGGCC: 0.214
ATGATAAT: -0.0388
ACTATCTC: -0.0716
ATCCCTTA: -0.118
ACACCGTA: 0.202
CACCGATG: -0.0431
CACAGGAC: -0.0675

Series 2
Target: ABI1, truncated, D143A, DHFR fusion (Arabidopsis thaliana)
Technique: DHFR PCA, deep sequencing
Medium: yeast
Setting: methotrexate growth selection, single substitutions
Together with: (+)-ABA 0 µM
Baseline: wild-type fitted maximum
Direction: higher = stronger binding
Measurement: relative binding score
Starting sequence: PYL1, truncated, DHFR fusion (Arabidopsis thaliana); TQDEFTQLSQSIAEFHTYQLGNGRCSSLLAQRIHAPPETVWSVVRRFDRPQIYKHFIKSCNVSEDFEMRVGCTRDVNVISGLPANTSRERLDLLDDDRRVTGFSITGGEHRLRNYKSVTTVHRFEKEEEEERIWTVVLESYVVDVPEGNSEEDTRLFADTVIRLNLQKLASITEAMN; partner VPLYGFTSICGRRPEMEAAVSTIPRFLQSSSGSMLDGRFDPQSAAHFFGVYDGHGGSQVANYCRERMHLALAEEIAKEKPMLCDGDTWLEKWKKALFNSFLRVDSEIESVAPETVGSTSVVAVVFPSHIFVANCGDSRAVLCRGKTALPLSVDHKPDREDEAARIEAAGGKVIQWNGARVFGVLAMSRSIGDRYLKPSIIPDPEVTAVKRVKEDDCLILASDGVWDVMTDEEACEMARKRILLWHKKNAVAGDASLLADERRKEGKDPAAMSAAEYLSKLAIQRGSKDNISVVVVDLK
E130L: 8.28%
N114A: 0.469%
Q7Y: 24.1%
D97N: 27.3%
D96I: -28.6%
R46I: 0.309%
E89D: 6.72%
V137F: -11.5%
I172G: -9.24%
V43G: -3.42%
C72R: 1.01%
C60L: -1.45%
I162R: 7.93%
S59D: 21.9%
W41L: -0.582%
A35K: -1.98%
T17W: 4.49%
V142I: 16.4%
W41G: -0.771%
E152K: 3.22%
E152V: 5.11%
G148K: -17.8%
Q7M: 20.8%
H122Y: 1.18%
E14G: 1.42%

Series 3
Target: RNA binding protein fox-1 homolog 2, RRM domain, GST-SBP tag (RBFOX2, Homo sapiens, UniProt O43251-10, residues 100-194)
Technique: RNA Bind-n-Seq
Form: RNA
Medium: in vitro
Concentration: 365 nM
Setting: natural RNA segment, single round, ends assumed
Baseline: no-protein control
Direction: higher = stronger binding
Measurement: RBNS enrichment (R)
All sequences stand within: GGGAGUUCUACAGUCCGACGAUC … UGGAAUUCUCGGGUGCCAA
Residues (chain): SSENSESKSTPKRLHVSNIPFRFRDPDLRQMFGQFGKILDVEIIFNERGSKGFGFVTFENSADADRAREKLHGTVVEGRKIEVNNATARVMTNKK
GUCUUAUGUAGGGAGGGGGCAAGUAUGAAGUAAGGUAAUUAUAUACUACUCUCAUUCAGGAUUCUUGCUCCCAUGCUGCUGUCCCUUCAGGCUCACAUGCACAGGAAUGC: 0.753
AUAUCAGAAACUCACAAACCUAGACAUGGAAAAACAGAUUACUGUCUAUUGUCAGCAUCAUUUUCAUCUGUAAGUCACUACUGGAAUAUAUUUUUCUUUUAAUUUCCAGU: 0.514
UGGGUCCAGUUGCAGUGGCCAAUUUCCUGAAACCUGUCUUUUCCUAAGCGCUGACCGUGAACUCUGCCCUUGAUGGCGCUAAGCUGUCUGGACAGUGCGGUUACAAGCAU: 0.309
CUCUUGUCUCCCACCCUGAGAUUGGGCAUGGGGUGCGGUGUGGGGGGCAUGUGCUGCCUGUUGUUAUGGGUUUUUUUUGCGGGGGGGGUUGCUUUUUUCUGGGGUCUUUG: 9.3
AGCUCCGGUGACUGCAUGAGCCACCUGGCCACAGUCCUCCCAUGGAGGGCCUGCCGUGACGCUCAGUGGAGAGGGCAGGGCCUGUGUCUCCACUUAGGCCACACAGUGAU: 0.227
UGAAGGAGGUGGGUGGAAACGGCUCUUGUUUGAAAGAACUUAGGGAGGACCAUUGGCUUGCCAAGAGUACAGAAAUUCAUUAUGCUGCUAAUUUAACGUGGAAUUCCUUC: 0.527
GGUUAAUGAAGAACACUUCUCAACAGUUUCCUUUUUGUUUUCCUUUAUAAUUCACUAAAAUAAAGCAUCUAUUAGUGUCUGAUUUAGGAAUGUAAAAUGAUUCUGUAUUA: 4.1
CUGUCAUGACAUGCUAACUAGACUUCAGGGGAGCCACUUCUGUUUUCAGCCCCUCCCUGGAAUAGUGAGUUGGGAGGAUGGGGAGACAGCUAACCAACUGCAUUACCCAA: 0.899
GGCUCUCACUUCCUCUGCCCUUCCCUCUGAGCAGCCAUAGUGACAUUUACUAUGAAUUUACUUCCUCCCAAGAAUUUGGACUGGCCGUCAGACUGUUGCUACAUACAAUU: 0.607
GUAGACCAUUGAGCGAUGAAUGCACACCUGUAGUAGCCCAGGACCAGCUGUGGUGGCUAAAGGGAAUAUGUUAAUUAAGCAAGAGGUUCUUUUCUAAAAGUGGUAUCUGU: 0.599
CCACACUGUCCCUGGAGAUCCCUCCAGCCUAGCCCUGCUAUAGAUCUGCUCUAGACUGUGAAAUCAGCAUGUAUGUGAAAAAUCCCAGUCCUUGACCAUGUCUCCCACUC: 3.84
GAAUCAUUAGGUAUAAAAAAUAAUCAUCAACCAGGCAAAUUACUUUGCUUCCUAGCUGAUGUCAUCCCACAUUGGUACAGGUGUUAUUCAGUACUGGGUGGUUCAGCAGG: 0.243

Series 4
Target: Interferon regulatory factor 7, full length, phosphomimetic (IRF7, Homo sapiens, UniProt Q92985, residues 1-503, S471D/S472D/S475D/S476D/S477D/S483D/S484D/S487D)
Technique: protein-binding microarray
Form: double-stranded DNA, one strand shown
Medium: in vitro
Concentration: 2200 nM top
Setting: 60-bp whole probe
Together with: salmon DNA 0.4 mg/ml
Baseline: random background probes
Direction: higher = stronger binding
Measurement: fitted relative affinity
All sequences stand within: GCCTAGCAC … GTCTTGATTCGCTTGACGCTGCTG
Residues (chain): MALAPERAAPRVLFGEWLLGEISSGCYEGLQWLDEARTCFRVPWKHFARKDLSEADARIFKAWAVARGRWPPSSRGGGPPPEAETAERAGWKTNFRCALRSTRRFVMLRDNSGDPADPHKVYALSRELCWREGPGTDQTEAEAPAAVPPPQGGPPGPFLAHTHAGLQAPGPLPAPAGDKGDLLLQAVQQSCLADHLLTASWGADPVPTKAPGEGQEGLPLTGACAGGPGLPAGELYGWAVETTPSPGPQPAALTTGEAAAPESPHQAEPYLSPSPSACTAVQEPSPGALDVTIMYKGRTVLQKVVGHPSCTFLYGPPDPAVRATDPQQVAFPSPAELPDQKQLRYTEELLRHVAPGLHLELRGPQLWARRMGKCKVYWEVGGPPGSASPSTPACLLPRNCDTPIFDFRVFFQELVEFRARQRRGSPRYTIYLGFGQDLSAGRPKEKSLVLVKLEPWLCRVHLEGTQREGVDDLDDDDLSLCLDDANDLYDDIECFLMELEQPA
TCATCTTTTCATTACTGACTGTGCTAG: 1.87 z-score
TCATTTTTCTCAACCGTACTGTGCTAG: 1.89 z-score
GACTGTATCGGGTTTCGGGACGTGCTA: 1.75 z-score
TCGGTGATCAGTCTGATGGTGTGCTAG: 0.854 z-score
GACGGGCTGCTACTGCTGACGTGCTAG: -0.72 z-score
TTAGGACTGGGTATCGATTAGTGCTAG: -0.232 z-score
TCACATACTGATTTCCAACTGTGCTAG: 1.81 z-score
GACGAACTGAGCTTCGAGACGTGCTAG: -0.152 z-score
GAGGAACTGAGACTGGAGACGTGCTAG: -0.777 z-score
TTAGGACTGGACACTAGGTTAGTGCTA: -0.874 z-score
TCATCTAAAAAGTCTCTGACTGTGCTA: -0.38 z-score
TTAGATTACGGGTTTCGATTAGTGCTA: 2.82 z-score
TGAGAACTGGGGTATCGATTAGTGCTA: -0.163 z-score
GACGGAATCCTACTGCTGACGTGCTAG: 0.327 z-score
TTAGGTCTGCTACTGCTTTAGTGCTAG: 0.149 z-score
TCAGCTTCCCAATTCTCACTGTGCTAG: 1.82 z-score
AGAGATTTCAGGAATTGAAAAGTGCTA: -1.35 z-score
GACGGTTTCCTTTTCCTGGCGTGCTAG: 6.02 z-score
TTATGTATCCTTTTCCTTTAGTGCTAG: 2.63 z-score
GACGAACTGGGGTGTCGAGACGTGCTA: -0.212 z-score
GACGGACTGGCCTTTCGGGACGTGCTA: -0.218 z-score
GACGGTCTAGGTTTCGGGACGTGCTAG: 2.22 z-score

Series 5
Organism: Saccharomyces cerevisiae
Read-out: binding
Technique: competitive growth deep sequencing
Form: peptide
Strain: cyclin D3-Cln2 fusion strain
Concentration: concentration not given
Setting: peptide tiling library
Direction: direction not given
Measurement: growth enrichment score
RRVLCFDS: -0.566
VLLKRLQDVVSERANH: 4.53
KPITLDTTDFQESFVT: 0.373
ESSQLTVQAEFDMSAI: 0.733
PARRRLRLSVDEVSSP: -1.11
TARRIFQEPTEPKTKA: 1.23
SAVPLILPQAPSGPSY: 0.586
SSEVARHLLFQSHM: -1.28
IVLICAKRSLCAAFSV: -0.745
PLRKAKRARLCSSSSS: 0.482
SCCKRKLVVGNGPEGP: -0.993
ALTMEALEDPSPELME: 1.59
NARRSLNFGGSTGT: -0.21
PAKRRLELGE: -0.0826
EPRNLLSLFEDTLDPT: -0.43
RKLHFEDEVT: -0.412
LRRQLSFSED: -0.367

For quick reference, copied from above (series 1):
GAACTAAC: -0.0763
TATCTTCA: -0.0303
TAGTTTAA: -0.0385
ATGTTAGA: -0.217
AAACTGGA: -0.134
GACAGATA: -0.019
CACATTAC: 0.0851
CTTAACAC: 0.00581
AAGCGTAG: 0.0471
GCTCAGCC: 0.00717
AGGCTGGG: -0.297
